Measurements gathered from unrelated publications.
Protocols differ between the studies behind these lines. ± marks the error that the study gave.

The radiochemical purity of `O=C(NCC1OC2CCC=CCCC2O1)c1ccc([18F])nc1` (centres unmarked) is reported as 95% (PBS; 2 h, 37 °C).
The radiochemical purity of `O=C([O-])CN1CCN(CC(=O)[O-])CCN(CC(=O)NC[C@H]2CC[C@H](C(=O)N[C@H](Cc3cnc4ccccc4c3)C(=O)NCCCC[C@H](NC(=O)N[C@@H](CCC(=O)O)C(=O)O)C(=O)O)CC2)CCN(CC(=O)[O-])CC1.[64Cu+2]` is reported as > 95% (radio-HPLC; 5% BSA; 24 h, 37 °C).
Under “radiochemical stability time”, `CCN(CC)c1ccc2c(-c3ccc(S(=O)(=O)NCCNC(=O)CN4CCN(CC(=O)[O-])CCN(CC(=O)O)CCN(CC(=O)[O-])CC4)cc3S(=O)(=O)[O-])c3ccc(=[N+](CC)CC)cc-3oc2c1.[64Cu+2]` is recorded as > 8 h (after HPLC purification).
`COc1cc2c(cc1OC)CN(CCCCn1ccc3cc(OCC[18F])ccc31)C2` gave a radiochemical purity of > 99% (saline; 2 h, ambient).
For `C[C@]12CC[C@@H]3c4ccc(OCC(=O)N[C@@H](CCCCNC(=O)CN5CCN(CC(=O)[O-])CCN(CC(=O)[O-])CCN(CC(=O)[O-])CC5)C(=O)O)cc4CC[C@H]3[C@@H]1CCC2=O.[68Ga+3]`, “radiochemical stability duration” read ≥ 4 h (radio-HPLC; room temperature).
`CC(C)C[C@@H]1NC(=O)[C@@H]2CCCN2C(=O)[C@H](CO)NC(=O)[C@@H](NC(=O)[C@H](Cc2c[nH]cn2)NC(=O)[C@H](CO)NC(=O)[C@H](Cc2ccc(O)cc2)NC(=O)[C@H](CC(=O)O)NC(=O)CNC(=O)CN2CCN(CC(=O)O)CCN(CC(=O)O)CCN(CC(=O)O)CC2)CSSC[C@@H](C(=O)N[C@H](C(=O)N[C@@H](Cc2ccc(O)cc2)C(=O)N2CCC[C@H]2C(=O)N[C@@H](CC(=O)O)C(=O)N2CCC[C@H]2C(=O)N[C@@H](CCC(=O)O)C(=O)NCC(=O)NCC(=O)NCC(N)=O)[C@@H](C)O)NC(=O)[C@H](CCCCN)NC(=O)[C@H](Cc2c[nH]c3ccccc23)NC(=O)[C@H](Cc2c[nH]c3ccccc23)NC(=O)[C@@H]2CCCN2C(=O)[C@H](Cc2ccc(O)cc2)NC(=O)[C@H](Cc2ccc(O)cc2)NC(=O)[C@H](CCCNC(=N)N)NC1=O` [gallium-68 labelled] has a radiochemical purity of 91.2 ± 2.5% (radio-HPLC; 5% fetal bovine serum; 1 h, room temperature).
`C[C@H]1C[C@@H](Oc2cccc(F)n2)CCN1Cc1cnc(N[11C](C)=O)s1` gave a radiochemical stability of > 97% (HPLC; formulation; 2 h, room temperature).
For `CCC(C)N(C)C(=O)c1nc(-c2cccc(C(F)(F)[18F])c2)c2ccccc2n1` (centres unmarked), the radiochemical purity was > 99% (normal saline; 6 h, 37 °C).

Excerpt of the above:
The radiochemical purity of `O=C(NCC1OC2CCC=CCCC2O1)c1ccc([18F])nc1` (centres unmarked) is reported as 95% (PBS; 2 h, 37 °C).
